Measured values collected from several papers.
Every numbered part comes from another study and shows a few of its results, in no order. Substitutions count along the parent as printed.

Set 1
Target: RING finger protein unkempt homolog, zinc fingers 1-6, GST-SBP tag (UNK, Homo sapiens, UniProt Q9C0B0, residues 30-357)
UniProt Q9C0B0, sequence (30-357, looked up): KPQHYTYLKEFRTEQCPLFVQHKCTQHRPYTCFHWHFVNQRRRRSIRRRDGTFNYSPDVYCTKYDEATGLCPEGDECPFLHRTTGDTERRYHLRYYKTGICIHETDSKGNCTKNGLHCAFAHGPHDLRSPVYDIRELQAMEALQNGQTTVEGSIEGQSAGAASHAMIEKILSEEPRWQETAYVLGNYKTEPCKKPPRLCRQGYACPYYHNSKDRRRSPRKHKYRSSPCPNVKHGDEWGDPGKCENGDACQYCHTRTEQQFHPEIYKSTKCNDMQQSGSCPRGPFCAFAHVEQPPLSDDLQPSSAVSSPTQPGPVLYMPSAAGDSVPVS
Technique: RNA Bind-n-Seq
Form: RNA
Sample: in vitro
Tested at: not given
Setting: RNA with constant flanks, human and mouse sites, ends assumed
Baseline: input RNA pool
Direction: higher = stronger binding
Shared flanks, not repeated: GGGAGUUCUACAGUCCGACGAUC … CAACAGAGGAUUGAGCAUCA
Oligonucleotide | bound/input enrichment [ratio]
AAUAUGAGGGCCAGGCAGCAGGCCAAGCGAGAAGCUUGCAGUGAUGCCAUGUCUGGAGCUAUAGAUACAAAUAAGAAAGAGUCCUGGUUCUUGCCUGAAGAGAAAGCUAAUGUUUUUUCA | 0.861
GUCAUUGAUGUCCUUCACCCCGGGAAGGCGACAGUGCCUAAGACAGAAAUUCGGGAAAAACUAGCCAAAAUGUACAAGACCACACCGGAUGUCAUCUUUGUAUUUGGAUUCAGAACUCAU | 0.621
AGGAAAAACCAAACUACAAAAAGAUUUAUUUAUAAUAUUCCACCUAAUAAUGAAACGAAUUUAGAAGAUUGCUCAGUAAUGCAGCCACCUGUUGCCUAUCCAGAAGAAAAUACACUACUC | 21
UUUCCUAAAGCCAUCAUGCCUUGAUAAAUAUAUAUGAUCAUUGAAAUACUUUUUAACAAAAACAGAUUCUAUAUUAUAUAUAUAUAUAUAUAUUAAAAAAUAUAUAGAGAUGCUUUCACA | 4.57
CCCAGCAGCGGACUCCGAGACCAGUAGACCUCGGCGAACCCUUGCUCUCGACCACCCACCCACUUUCGGAACCAUGGCCGCAGUGGCAGCAGCCUCGGCAGAACUGCUCAUCAUCGGCUG | 0.133
UAAUUUAAAAGAAUUACUAAUUCCCCUACCCCCAUCUGUGCUGAGGACAUUUCCCAGCCCUAGCUGGGGGAAAACAGCAUUUUCUUGAAGUGUGUGGCAUUAUCAAUGGGGAUUCAAAGU | 0.248
GACUUUGGGACUGGUCCUCGCAACGCAGCCUUCUAUAGCCCUCAUGGACAUAUAUUAGUGCUGGCUGGAUUUGGAAAUCUUCGAGGACAAAUGGAAGUAUGGGAUGUUAAAAACUACAAG | 0.356
CAGUCUUCUAUGUCUAUUGAGUUCGGCCAGGAAUCCCCUGAGCAUUCUCUUGCUAUGGACUUUAGUCGGCAGUCUCCAGAUCACCCUACUCUGGGUGCCAGUGUGCUUCAUAUCACUGAA | 0.251
CGAUGCCUAAGAUGGGGAGGAGGUUAUGAAGGACAGAAUCUGGCAAAGAUCCUCAAGGAUUUAGAGAUGAGUAAAGUGGUACAUAUGGAUCGAUGGUCUGUGGAGGUGAUACCUCAACAA | 0.336

Set 2
Target: CCNE2, cyclin fold, Cln2 fusion (human)
Technique: yeast growth competition, sequencing
Sample: yeast
Setting: weak parent motif
Baseline: not given
Direction: higher = stronger binding
Starting sequence: CDC6 docking peptide (human); TLKGRRLVFDNQL; partner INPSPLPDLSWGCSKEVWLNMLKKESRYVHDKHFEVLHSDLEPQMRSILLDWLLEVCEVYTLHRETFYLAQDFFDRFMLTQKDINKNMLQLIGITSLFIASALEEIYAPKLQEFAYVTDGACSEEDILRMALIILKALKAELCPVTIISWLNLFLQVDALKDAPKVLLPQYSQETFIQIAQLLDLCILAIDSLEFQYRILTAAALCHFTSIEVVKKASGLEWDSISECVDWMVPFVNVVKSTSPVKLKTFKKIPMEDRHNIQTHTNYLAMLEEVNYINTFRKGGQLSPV
Variant | normalised enrichment score
G4A | 0.308
K3G | -0.0968
V8W | 0.588
Q12N | 0.541
R6G | -0.263
D10T | 0.47
D10Q | 0.0184
F9E | 0.546
R5D | -0.592

Set 3
Target: Ras GTPase-activating protein-binding protein 1, C-terminal RGG region (G3BP1, Homo sapiens, UniProt Q13283)
UniProt Q13283, sequence (whole entry, looked up): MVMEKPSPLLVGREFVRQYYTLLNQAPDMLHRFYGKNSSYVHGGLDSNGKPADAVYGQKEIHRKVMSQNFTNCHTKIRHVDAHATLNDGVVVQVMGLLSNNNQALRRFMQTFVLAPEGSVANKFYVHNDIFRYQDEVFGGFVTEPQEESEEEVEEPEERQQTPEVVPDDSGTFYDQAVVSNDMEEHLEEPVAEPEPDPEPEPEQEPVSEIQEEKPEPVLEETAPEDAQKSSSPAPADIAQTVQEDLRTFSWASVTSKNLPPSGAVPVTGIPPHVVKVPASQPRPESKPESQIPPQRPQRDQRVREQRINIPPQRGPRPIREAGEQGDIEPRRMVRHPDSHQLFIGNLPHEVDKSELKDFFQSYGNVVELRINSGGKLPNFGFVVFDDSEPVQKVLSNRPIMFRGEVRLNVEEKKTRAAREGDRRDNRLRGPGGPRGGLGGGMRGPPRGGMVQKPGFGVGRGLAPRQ
Technique: RNA Bind-n-Seq
Form: RNA
Sample: in vitro
Tested at: 1 µM
Setting: whole 134-nt RNA, ends assumed
Together with: 150 mM KCl
Baseline: input library
Direction: higher = stronger binding
Shared flanks, not repeated: GGGAGUUCUACAGUCCGACGAUC … UGGAAUUCUCGGGUGUCAAGG
Oligonucleotide | log2 enrichment
AGUCCUGUGCUACACAUCGUAUGUACCGAAUCGGGGAAAAAGGAAAAAGGAAAAAGGAAAGUAUUAUGUUACGCCGUUCGGAUCUGCACU | -1.96
AGUCCUGUGCUACACAUCGUAUGUACCGAAUCGGGGAGGGGUUUUUGGGGAAAGGGGAAAGUAUUAUGUUACGCCGUUCGGAUCUGCACU | 1.6
ACCAUGCAGGUGGGCAUCUUUGGGAAGUGGGGCAAGGGGGGGAUAGGGAGGGGGGUAACACUUUGGGAGCAGGUGGUCCCAGGUCGUUUC | 2.19
AGUCCUGUGCUACACAUCGUAUGUACCGAAUCGGGAAAAAGGGUGGGAAAAAAAGGGAAAGUAUUAUGUUACGCCGUUCGGAUCUGCACU | 0.0861
AAGUCCUGUGCUACACAUCGUAUGUACCGAAUCAAACCCAAAUUUUUAAAUUUAAAAAAGUAUUAUGUUACGCCGUUCGGAUCUGCACUU | -1.02
CAAGUCCUGUGCUACACAUCGUAUGUACCGAAUCGGUGGUUUUUGGAAAAAAAGGAAAGUAUUAUGUUACGCCGUUCGGAUCUGCACUUC | -1.52
CCUCAAGUCCUGUGCUACACAUCGUAUGUACCGAAUCGGAGGAGGGGAGGGGAAAGUAUUAUGUUACGCCGUUCGGAUCUGCACUUCCAG | -0.598
AGUCCUGUGCUACACAUCGUAUGUACCGAAUCGGAAAAAAAGGAAAGGAAAAAAAGGAAAGUAUUAUGUUACGCCGUUCGGAUCUGCACU | -1.86

Other studies, line by line
Molecule | target | test | test system | setting | scale | quantity | value
PhoQ, residues 284 288 289 292 302 303 NLAAMI | PhoP, residues 12 14 15 18 19 LWHVM (Escherichia coli, UniProt P23836) | Sort-seq, measured: YFP reporter | E. coli | PhoQ-PhoP variant library, together with: 10 µM Mg2+ | baseline: high Mg2+ state, higher = stronger signaling | fold induction | 0.718

Some of these lines once more (set 2):
Variant | normalised enrichment score
D10T | 0.47
V8W | 0.588
R5D | -0.592
